Experimental data gathered from unrelated publications.
Every numbered part comes from another study and shows a few of its results, in no order.

Set 1
Target: Phosphate system positive regulatory protein PHO4, full length, GST-tagged (PHO4, Saccharomyces cerevisiae, UniProt P07270, residues 1-312)
Technique: competition protein-binding microarray
Molecule type: double-stranded DNA, one strand shown
Medium: in vitro
Tested at: 2 µM
Notes: whole 60-bp probe, lowest competitor level
Together with: Cbf1 competitor, 0.05 µM
Reading: higher = stronger binding
Endpoint: fluorescence intensity
Shared flanks, not repeated: … GTCTTGATTCGCTTGACGCTGCTG
Residues (chain): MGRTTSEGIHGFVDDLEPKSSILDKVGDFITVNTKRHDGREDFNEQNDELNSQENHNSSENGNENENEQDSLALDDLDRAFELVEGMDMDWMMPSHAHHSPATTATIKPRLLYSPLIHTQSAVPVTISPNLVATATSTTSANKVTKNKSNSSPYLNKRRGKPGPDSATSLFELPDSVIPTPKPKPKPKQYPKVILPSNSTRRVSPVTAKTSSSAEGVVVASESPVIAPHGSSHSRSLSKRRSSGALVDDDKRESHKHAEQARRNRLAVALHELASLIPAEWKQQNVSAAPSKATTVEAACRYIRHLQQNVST
CGGGGTTAAGTTTGCTTGGTGGGTGGCTTGCAGCAG: 4290 a.u.
CATACCCAACCTTGCGTGGTGGGTGAAGATATTTGT: 6180 a.u.
ACCGAAATTTCTCCACACGTGATGGTAAGTGTATTT: 14600 a.u.
GAACAAGACAATCCACACGGGATTTTGACGCCCCTA: 5120 a.u.
AAATTACTAAGTTGGAGAGTGGGTGACGCCGTATGA: 4110 a.u.
CGTCCTAGTGATTGGTTGGTGGGTGCCATGAGGAAG: 7080 a.u.
CGTCCTAGTGATTGGAATGTGGGTGCCATGAGGAAG: 7300 a.u.
CGTCCTAGTGATTGTTCTGTGGGTGCCATGAGGAAG: 6270 a.u.

Set 2
Target: RNA binding protein fox-1 homolog 2, RRM domain, GST-SBP tag (RBFOX2, Homo sapiens, UniProt O43251-10, residues 100-194)
Technique: RNA Bind-n-Seq
Molecule type: RNA
Medium: in vitro
Tested at: 365 nM
Notes: natural RNA segment, single round, ends assumed
Reference: no-protein control
Reading: higher = stronger binding
Endpoint: RBNS enrichment (R)
Shared flanks, not repeated: GGGAGUUCUACAGUCCGACGAUC … UGGAAUUCUCGGGUGCCAA
GUGAGAUCAACAAAUGAGACCCUGGGGACAGCCCCCGAAGAUUAGGAAGAUGCUAAUCCACACAGAAAUGGCAGCCCUUGGUCUGGAAAGGGAAGGCUGCGGGAAUCAUG: 0.377
UCCUUGUGUAGAAAUGAUUCCCAGUCUAGUUACCAACAGCUAGUCUAGGAGUAAUUGAAUGGCCCUAUGGCACAGUUCCACCCACAGAGUAGUGAAUCUCUCAGCCAAGG: 0.526
CCACCCCCUUUACCUCCCUUCCCAGAACUGAUACACGGGUGUUAUUAUUCAGGAAAAAAACUGAGCAGCUCUGGCCAGCAGCAAGGUUUCUUCUCUACUGCCCCAACUAU: 0.877
CACCUAAAAGGGUUUUGCUUCGGGAUUUUUGUUUGUUCGGUUUUUUUGUUUUUUUAAAGAAAAAGAAAAAUGAGAAGAAAAAAAUAAAAGCUCCAGCGUCUUUCUUAUAA: 0.837
UUCAAUUUUUUAUUUUGUAGAUUUCUUUUAAAGUUUGAUUGAUUUCCCCGUUUUUUAAAUCUUUUCUAAUGUUCUGGGAAAGGGGGAGCAUAAACAGCACUUUCAGGCUA: 0.667
GGGGAAAAGGUACAAUAUGUCAAAGAGAUGAGAGAGUGUUAUUUCUUGGGCAAUUUUCUAUUAGUGUUUCUUAUUUUGGCCAGUUCUUUUAUUUAUGUCCUUGUGACCCA: 0.504
GCUGUGCCCCACCUCCAGCCUCACCACCAGGCCAGGAGGCAGCUGGCACAGUGCUCACGCCGCCUUUAUUUAUUGGACCAGAAACACUCACAUGUCACUUCCAGAGGAAC: 0.519
CUUCUGUACAUGUUUUCCCCUUUGGUGAUACCCAGUGGUCCCAGCUAAUGGUGUCUGAGCAUAGUCAAGAAUACAACUCCUUUCACAUAAAGAUCCCCUACAGCAUUUCU: 0.856

Set 3
Target: TATA-box-binding protein 1 (TBP1, Arabidopsis thaliana, UniProt P28147, residues 1-200, full length assumed)
Technique: protein-binding microarray
Molecule type: double-stranded DNA, one strand shown
Medium: in vitro
Tested at: not given
Notes: k-mer, scored over probes, only values ≥0.25
Reading: higher = stronger binding
Endpoint: E-score
Residues (chain): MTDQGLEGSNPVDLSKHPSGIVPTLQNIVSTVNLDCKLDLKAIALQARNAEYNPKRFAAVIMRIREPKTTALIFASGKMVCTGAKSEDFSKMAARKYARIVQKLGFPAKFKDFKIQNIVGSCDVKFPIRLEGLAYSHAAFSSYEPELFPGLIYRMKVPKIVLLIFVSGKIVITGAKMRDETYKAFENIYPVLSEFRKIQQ
CTAAAAA: 0.281
ATATACG: 0.399
CATAATA: 0.335
CTTATTA: 0.341
CTTCTTA: 0.291
TATTTCA: 0.298
CATAAAA: 0.335
AATCATA: 0.301

Further values, each from its own experiment
AKATGRYNL  z-score of log IC50 (HLA class I histocompatibility antigen, A alpha chain, allele A*80:01 (Homo sapiens, UniProt P04439); peptide-MHC binding; peptide; direction not given): 0.38

Excerpt of the above (set 1):
CGTCCTAGTGATTGGTTGGTGGGTGCCATGAGGAAG: 7080 a.u.
AAATTACTAAGTTGGAGAGTGGGTGACGCCGTATGA: 4110 a.u.
